Results gathered from unrelated publications.
Lines come from different studies, so protocols differ. ± marks the error that the study gave.
CYP2B6: Cytochrome P450 2B6 (CYP2B6, Homo sapiens, UniProt P20813)
Sequence of UniProt P20813 (whole entry, looked up): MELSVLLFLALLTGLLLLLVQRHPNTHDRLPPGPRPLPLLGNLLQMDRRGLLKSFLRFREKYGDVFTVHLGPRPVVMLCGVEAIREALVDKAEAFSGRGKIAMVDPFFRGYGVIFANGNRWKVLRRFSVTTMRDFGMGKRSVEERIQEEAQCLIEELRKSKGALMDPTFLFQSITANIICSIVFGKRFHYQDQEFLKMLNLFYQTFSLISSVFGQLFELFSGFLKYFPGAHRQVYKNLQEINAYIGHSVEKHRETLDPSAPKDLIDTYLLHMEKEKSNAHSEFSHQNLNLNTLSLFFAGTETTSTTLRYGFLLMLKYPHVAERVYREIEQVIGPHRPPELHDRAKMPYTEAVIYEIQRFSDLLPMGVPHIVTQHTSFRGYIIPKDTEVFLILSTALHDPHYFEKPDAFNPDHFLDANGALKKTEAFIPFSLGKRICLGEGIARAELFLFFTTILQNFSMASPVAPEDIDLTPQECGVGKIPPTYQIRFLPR
uncharacterized protein: uncharacterized protein (Streptococcus mutans serotype c, UniProt Q8DS94)
Sequence of UniProt O00444 (whole entry, looked up): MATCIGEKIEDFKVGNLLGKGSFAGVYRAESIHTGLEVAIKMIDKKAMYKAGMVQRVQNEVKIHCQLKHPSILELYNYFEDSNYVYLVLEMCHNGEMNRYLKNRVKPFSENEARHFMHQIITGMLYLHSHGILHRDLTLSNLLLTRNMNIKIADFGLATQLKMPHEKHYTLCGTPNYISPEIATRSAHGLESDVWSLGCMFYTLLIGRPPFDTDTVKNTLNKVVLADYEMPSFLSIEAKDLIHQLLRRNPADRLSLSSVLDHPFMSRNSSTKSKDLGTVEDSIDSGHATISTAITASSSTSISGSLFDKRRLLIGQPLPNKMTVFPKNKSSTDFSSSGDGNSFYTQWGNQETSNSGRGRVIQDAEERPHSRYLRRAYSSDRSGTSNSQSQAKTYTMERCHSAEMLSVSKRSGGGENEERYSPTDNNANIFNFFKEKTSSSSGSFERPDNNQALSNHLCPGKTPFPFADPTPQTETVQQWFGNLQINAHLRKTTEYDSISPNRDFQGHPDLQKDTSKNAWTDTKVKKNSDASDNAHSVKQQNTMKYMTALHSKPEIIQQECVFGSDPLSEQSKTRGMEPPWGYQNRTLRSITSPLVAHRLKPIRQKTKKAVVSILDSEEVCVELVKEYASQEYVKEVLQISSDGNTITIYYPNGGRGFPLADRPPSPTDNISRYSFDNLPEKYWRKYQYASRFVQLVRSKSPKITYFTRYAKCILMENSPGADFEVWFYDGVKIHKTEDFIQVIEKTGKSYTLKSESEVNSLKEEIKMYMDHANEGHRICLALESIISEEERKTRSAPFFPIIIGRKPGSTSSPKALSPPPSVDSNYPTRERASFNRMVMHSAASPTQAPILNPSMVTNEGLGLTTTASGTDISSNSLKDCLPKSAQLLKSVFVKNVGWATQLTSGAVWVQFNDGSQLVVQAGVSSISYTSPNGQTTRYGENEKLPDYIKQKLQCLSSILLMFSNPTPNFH
Sequence of UniProt Q01959 (whole entry, looked up): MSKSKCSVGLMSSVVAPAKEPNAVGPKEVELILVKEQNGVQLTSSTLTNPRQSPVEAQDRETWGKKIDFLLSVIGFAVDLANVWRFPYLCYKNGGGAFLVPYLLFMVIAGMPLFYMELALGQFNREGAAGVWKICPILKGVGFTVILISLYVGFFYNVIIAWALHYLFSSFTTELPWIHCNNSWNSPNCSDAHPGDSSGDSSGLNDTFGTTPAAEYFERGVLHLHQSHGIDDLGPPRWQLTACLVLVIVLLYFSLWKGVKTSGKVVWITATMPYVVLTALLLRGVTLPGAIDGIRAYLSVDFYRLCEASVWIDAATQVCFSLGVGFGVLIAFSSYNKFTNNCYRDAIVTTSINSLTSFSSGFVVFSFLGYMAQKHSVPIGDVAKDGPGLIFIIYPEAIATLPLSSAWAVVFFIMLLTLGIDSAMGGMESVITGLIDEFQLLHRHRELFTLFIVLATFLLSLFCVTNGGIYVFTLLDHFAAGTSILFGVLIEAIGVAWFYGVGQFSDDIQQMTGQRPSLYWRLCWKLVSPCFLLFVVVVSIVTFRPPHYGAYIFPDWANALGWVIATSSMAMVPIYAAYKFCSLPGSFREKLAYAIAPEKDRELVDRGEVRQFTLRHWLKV
Sequence of UniProt P34972 (whole entry, looked up): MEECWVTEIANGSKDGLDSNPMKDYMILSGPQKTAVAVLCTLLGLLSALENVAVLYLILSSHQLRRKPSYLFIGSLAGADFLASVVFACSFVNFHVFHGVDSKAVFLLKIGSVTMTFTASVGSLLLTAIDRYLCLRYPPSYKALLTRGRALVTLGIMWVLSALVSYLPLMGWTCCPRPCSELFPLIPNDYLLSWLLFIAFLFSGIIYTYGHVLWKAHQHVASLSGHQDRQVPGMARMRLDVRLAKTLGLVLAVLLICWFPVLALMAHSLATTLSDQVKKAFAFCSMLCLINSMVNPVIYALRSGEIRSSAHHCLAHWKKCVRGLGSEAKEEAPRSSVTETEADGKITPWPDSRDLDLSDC

For CC[C@H](C)[C@H](N)C(=O)N[C@H](C(=O)N[C@@H](CCCCN)C(=O)N[C@H](C(=O)N[C@H](C(=O)NCC(=O)N[C@@H](CC(=O)O)C(=O)N[C@@H](CC(C)C)C(=O)N[C@H](C(=O)N[C@@H](CCCCN)C(=O)N[C@@H](Cc1c[nH]c2ccccc12)C(=O)N[C@H](C(=O)N[C@H](C(=O)N[C@@H](CC(=O)O)C(=O)N[C@H](C(=O)N[C@H](C(=O)N[C@@H](CC(N)=O)C(=O)N[C@@H](CO)C(=O)N[C@@H](Cc1ccccc1)C(=O)N[C@H](C(=O)N[C@@H](CCCCN)C(=O)N[C@@H](CCCCN)C(=O)O)[C@@H](C)O)C(C)C)[C@@H](C)O)[C@@H](C)CC)[C@@H](C)CC)C(C)C)[C@@H](C)CC)[C@@H](C)O)[C@@H](C)CC, the Kd was 7.5 µM (lipid vesicle binding; POPC vesicles; pH 7.5).
For N=C(N)NCCC[C@@H]1NC(=O)[C@H](CCCCNC(=O)CC[C@H](NC(=O)CCOCCOCCOCCOCCNC(=O)CN2CCN(CC(=O)O)CCN(CC(=O)O)CCN(CC(=O)O)CC2)C(=O)NCCCC[C@@H]2NC(=O)[C@@H](Cc3ccccc3)NC(=O)[C@H](CC(=O)O)NC(=O)CNC(=O)[C@H](CCCNC(=N)N)NC2=O)NC(=O)[C@@H](Cc2ccccc2)NC(=O)[C@H](CC(=O)O)NC(=O)CNC1=O [indium-111 labelled], the tissue uptake was 1.65 ± 0.13 %ID/g (female athymic nude mice, spleen; intravenous, 3 µCi, 1 h, U-87 MG glioma xenograft).
NCCCC[C@H](NC(=O)CNC(=O)CNC(=O)[C@H](CCCCN)NC(=O)CNC(=O)CNC(=O)CNC(=O)[C@H](CCCCN)NC(=O)CNC(=O)CNC(=O)[C@H](CCCCN)NC(=O)CNC(=O)CNC(=O)CNC(=O)[C@H](CCCCN)NC(=O)CNC(=O)CNC(=O)[C@H](CCCCN)NC(=O)CNC(=O)CNC(=O)CNC(=O)[C@H](CCCCN)NC(=O)CNC(=O)CNC(=O)[C@H](CCCCN)NC(=O)[C@H](CO)NC(=O)[C@H](Cc1ccc(O)cc1)NC(=O)CNC(=O)CNC(=O)CN)C(=O)NCC(=O)O: “dissociation rate constant” 0.0014 s⁻¹ (binding, SPR Langmuir fit; rVλ6Wil fibrils; 300 nM, pH 7.4).
CC[C@H](C)[C@H](NC(=O)CNC(=O)[C@H](CC(=O)O)NC(=O)[C@H](CC(C)C)NC(=O)[C@@H](NC(=O)[C@H](CC(N)=O)NC(=O)[C@H](CCC(N)=O)NC(=O)CNC(=O)[C@H](CC(C)C)NC(=O)[C@H](CCCCN)NC(=O)[C@H](CCC(=O)O)NC(=O)[C@@H](NC(=O)[C@H](CCCCN)NC(=O)[C@H](CCC(=O)O)NC(=O)[C@H](Cc1ccccc1)NC(=O)[C@H](CC(C)C)NC(=O)[C@H](CCCCN)NC(=O)[C@H](Cc1c[nH]c2ccccc12)NC(=O)[C@@H](N)CCC(=O)O)[C@@H](C)CC)[C@@H](C)CC)C(=O)N[C@H](C(=O)N[C@@H](CCCCN)C(=O)N[C@@H](CC(C)C)C(=O)NCC(=O)N1CCC[C@H]1C(=O)N[C@@H](CC(C)C)C(=O)N[C@@H](CC(C)C)C(=O)N[C@@H](C)C(=O)N[C@@H](CC(C)C)C(=O)N[C@@H](CC(C)C)C(=O)NCC(=O)N[C@@H](CCC(N)=O)C(=O)N[C@@H](CC(C)C)C(=O)N[C@H](C(=O)N[C@@H](CCC(N)=O)C(=O)N[C@H](C(=O)N[C@@H](C)C(=O)N[C@@H](CC(C)C)C(N)=O)[C@@H](C)CC)[C@@H](C)O)[C@@H](C)CC gave a Kd of 400 µM (membrane binding, stopped-flow FRET; POPC vesicles; pH 7.5, room temperature).
CCCCCc1cc(O)c2c(c1)OC(C)(C)C1CCC(CO)=CC21 (stereo not shown) has an IC50 of 7.3 ± 1 µM (CYP2B6; enzyme activity, inhibitor; microsomes from HEK cells; 30 min, preincubation without NADPH).
The IC50 of OC[C@H]1[C@@H](O)[C@@H](O)CN1Cc1ccc(I)cc1 is reported as 6100 µM (Lysosomal alpha-mannosidase (Drosophila melanogaster, UniProt Q9VKV1); pH 5.2, with: 2 mM pNP-Man).
With CCCCCc1cc(O)c2c(c1)OC(C)(C)C1CCC(C)=CC21 (single isomer, unassigned; (-)) the Ki was 5.7 ± 1 µM (CYP2B6; inhibitor; HEK293 overexpressing CYP2B6, recombinant microsomes; pH 7.4, total concentration, with: bupropion 12.5 to 100 µM).
With CC(=O)NC(Cc1ccc(Br)c(Cl)c1)C(=O)N[C@@H](C)C(=O)N1CCC[C@H]1C(=O)N1CCC[C@H]1C(=O)N[C@@H](CCC(=O)O)C(=O)N[C@@H](Cc1c[nH]cn1)C(=O)N[C@@H](CO)C(=O)N[C@H](C(=O)N[C@@H](C)C(N)=O)[C@@H](C)OP(=O)(O)O (stereo partly shown) the inhibition was 3.18 ± 0.19% (Serine/threonine-protein kinase PLK4 (PLK4, Homo sapiens, UniProt O00444); 10 µM).
For CC(C)[C@H](NC(=O)[C@H](CCCNC(=N)N)NC(=O)[C@@H](NC(=O)[C@H](CCC(N)=O)NC(=O)[C@H](CCC(N)=O)NC(=O)[C@@H](NC(=O)[C@H](Cc1c[nH]c2ccc(O)cc12)NC(=O)[C@@H]1CCCN1C(=O)[C@@H]1CCCN1C(=O)[C@H](Cc1ccccc1)NC(=O)[C@H](CO)NC(=O)CNC(=O)[C@H](CCCNC(=N)N)NC(=O)[C@H](CCCNC(=N)N)NC(=O)[C@H](CCCNC(=N)N)NC(=O)[C@H](CCCNC(=N)N)NC(=O)[C@H](CCCNC(=N)N)NC(=O)[C@@H](N)CCCNC(=N)N)C(C)C)[C@@H](C)O)C(=O)O, the Kd was 0.446 µM (Disks large homolog 4, PDZ3 domain (Homo sapiens, UniProt P78352); binding, SPR; pH 7.5, 25 °C).
CCCC[C@H](NC(=O)CCCCCCCNC(=O)c1ccc(NN)nc1)C(=O)N[C@H]1CC(=O)NCCCC[C@@H](C(N)=O)NC(=O)[C@H](Cc2c[nH]c3ccccc23)NC(=O)[C@H](CCCNC(=N)N)NC(=O)[C@@H](Cc2ccccc2)NC(=O)[C@H](Cc2c[nH]cn2)NC1=O [technetium-99m labelled] gave a biodistribution of 88.1 ± 1.9 %ID (C57 mice, B16/F1 melanoma, urine; concentration not given, 2 h, with: 12 mg L-lysine).
For CC(C)C[C@H](NC(=O)[C@H](CO)NC(=O)CNC(=O)[C@@H](N)CO)C(=O)N[C@@H](CO)C(=O)N[C@H](C(=O)N[C@@H](Cc1ccccc1)C(=O)N[C@@H](Cc1ccccc1)C(=O)N[C@@H](CCCNC(=N)N)C(=O)N[C@@H](CC(C)C)C(=O)N[C@@H](Cc1ccccc1)C(=O)N[C@@H](CC(N)=O)C(=O)N[C@@H](CCCNC(=N)N)C(=O)N[C@@H](CO)C(=O)N[C@@H](Cc1ccccc1)C(=O)N[C@H](C(=O)N[C@@H](CCC(N)=O)C(=O)N[C@@H](C)C(=O)O)[C@@H](C)O)[C@@H](C)O, the EC50 was 0.0062 µM (uncharacterized protein; Streptococcus mutans).
CCCCCn1cc(C(=O)c2ccc3c(c2)CC(C)(C)C3)c2ccccc21 has an EC50 of 0.513 µM (Cannabinoid receptor 2 (CNR2, Homo sapiens, UniProt P34972); β-arrestin recruitment, agonist, BRET).
CC(C)C[C@H](NC(=O)[C@H](CCCNC(=N)N)NC(=O)[C@H](Cc1ccccc1)NC(=O)[C@H](Cc1ccccc1)NC(=O)[C@@H](NC(=O)[C@H](CO)NC(=O)[C@H](CC(C)C)NC(=O)[C@@H](N)CO)[C@@H](C)O)C(=O)N[C@@H](Cc1ccccc1)C(=O)N[C@@H](CC(N)=O)C(=O)N[C@@H](CCCNC(=N)N)C(=O)N[C@@H](CO)C(=O)N[C@@H](Cc1ccccc1)C(=O)N[C@H](C(=O)N[C@@H](CCC(N)=O)C(=O)N[C@@H](C)C(=O)O)[C@@H](C)O gave an EC50 of 0.0079 µM (uncharacterized protein; Streptococcus mutans).
Under “deactivation speed ratio”, CC(C)C[C@H](NC(=O)[C@H](Cc1ccccc1)NC(=O)CNC(=O)CNC(=O)[C@@H](N)Cc1ccc(OC(C(=O)O)c2ccccc2[N+](=O)[O-])cc1)C(=O)O (stereo partly shown) is recorded as about 2 fold (K+ current, agonist, photo-uncaging; rat locus coeruleus neurons; reference: uncaging over local perfusion).
Under “dissociation rate constant”, C[C@@H](NC(=O)[C@@H](CCC(N)=O)NC(=O)[C@@H](C)NC(=O)[C@@H](CCCCN)NC(=O)[C@@H](CCC(N)=O)NC(=O)[C@@H](C)NC(=O)[C@@H](CCCCN)NC(=O)[C@@H](CCC(N)=O)NC(=O)[C@@H](C)NC(=O)[C@@H](CCC(N)=O)NC(=O)[C@@H](CCCCN)NC(=O)[C@@H](C)NC(=O)[C@@H](CCC(N)=O)NC(=O)[C@@H](CCCCN)NC(=O)[C@@H](C)NC(=O)[C@@H](CCC(N)=O)NC(=O)[C@@H](C)NC(=O)[C@@H](CCCCN)NC(=O)[C@@H](CCC(N)=O)NC(=O)[C@@H](C)NC(=O)[C@@H](CCCCN)NC(=O)[C@@H](CO)NC(=O)[C@@H](Cc1ccc(O)cc1)NC(=O)CNC(=O)CNC(=O)CN)C(=O)N[C@H](CCCCN)C(=O)N[C@H](CCC(N)=O)C(=O)N[C@H](C)C(=O)N[C@H](CCCCN)C(=O)N[C@H](CCC(N)=O)C(=O)O is recorded as 0.0019 s⁻¹ (binding, SPR Langmuir fit; rVλ6Wil fibrils; 300 nM, pH 7.4).
For CSCC[C@H](NC(=O)[C@H](CC(C)C)NC(=O)[C@H](Cc1c[nH]cn1)NC(=O)CNC(=O)[C@@H](NC(=O)[C@H](C)NC(=O)[C@H](Cc1c[nH]c2ccccc12)NC(=O)[C@H](CCC(N)=O)NC(=O)CCCCCNC(=O)CNC(=O)CNC(=O)CNC(=O)CSC(C)=O)C(C)C)C(N)=O [technetium-99m labelled], the tissue uptake was 0.3 ± 0.03 %ID/g (nude mouse, PC-3 xenograft, muscle; 30 min, with: excess unlabelled conjugate).
N=C(N)NCCC[C@@H]1NC(=O)[C@H](CCCCNC(=O)CC[C@H](NC(=O)CCOCCOCCOCCOCCNC(=O)CC[C@H](NC(=O)CN2CCN(CC(=O)O)CCN(CC(=O)O)CCN(CC(=O)O)CC2)C(=O)NCCOCCOCCOCCOCCC(=O)N[C@@H](CCC(=O)NCCCC[C@@H]2NC(=O)[C@@H](Cc3ccccc3)NC(=O)[C@H](CC(=O)O)NC(=O)CNC(=O)[C@H](CCCNC(=N)N)NC2=O)C(=O)NCCCC[C@@H]2NC(=O)[C@@H](Cc3ccccc3)NC(=O)[C@H](CC(=O)O)NC(=O)CNC(=O)[C@H](CCCNC(=N)N)NC2=O)C(=O)NCCCC[C@@H]2NC(=O)[C@@H](Cc3ccccc3)NC(=O)[C@H](CC(=O)O)NC(=O)CNC(=O)[C@H](CCCNC(=N)N)NC2=O)NC(=O)[C@@H](Cc2ccccc2)NC(=O)[C@H](CC(=O)O)NC(=O)CNC1=O [indium-111 labelled] gave a tissue uptake of 1.46 ± 0.69 %ID/g (athymic nude mice, female, U-87 MG glioma xenograft, bone; intravenous, 3 µCi, 4 h).
For CC(C)[C@H](N)C(=O)N[C@@H](Cc1ccc(O)cc1)C(=O)N[C@@H](CCCCN)C(=O)N[C@H](C(=O)N[C@@H](CCCCN)C(=O)N[C@H](C(=O)N[C@@H](CCCCN)C(=O)N[C@H](C(=O)N[C@@H](CCCCN)C(=O)N[C@H](C(=O)N[C@@H](CCCCN)C(=O)N[C@H](C(=O)N[C@@H](CCCCN)C(=O)N[C@H](C(=O)N[C@@H](CCCCN)C(=O)N[C@H](C(=O)N[C@@H](CCCCN)C(=O)N[C@H](C(=O)O)[C@@H](C)O)C(C)C)[C@@H](C)O)C(C)C)[C@@H](C)O)C(C)C)[C@@H](C)O)C(C)C, “dissociation rate constant” read 0.0034 s⁻¹ (binding, SPR Langmuir fit; rVλ6Wil fibrils; 300 nM, pH 7.4).
CCC[C@@H](C(=O)c1ccccc1)N1CCCC1 has a Ki of 0.01 µM (Sodium-dependent dopamine transporter (SLC6A3, Homo sapiens, UniProt Q01959); transporter uptake, inhibitor, radiometric).

For quick reference, copied from above:
For CC(C)[C@H](NC(=O)[C@H](CCCNC(=N)N)NC(=O)[C@@H](NC(=O)[C@H](CCC(N)=O)NC(=O)[C@H](CCC(N)=O)NC(=O)[C@@H](NC(=O)[C@H](Cc1c[nH]c2ccc(O)cc12)NC(=O)[C@@H]1CCCN1C(=O)[C@@H]1CCCN1C(=O)[C@H](Cc1ccccc1)NC(=O)[C@H](CO)NC(=O)CNC(=O)[C@H](CCCNC(=N)N)NC(=O)[C@H](CCCNC(=N)N)NC(=O)[C@H](CCCNC(=N)N)NC(=O)[C@H](CCCNC(=N)N)NC(=O)[C@H](CCCNC(=N)N)NC(=O)[C@@H](N)CCCNC(=N)N)C(C)C)[C@@H](C)O)C(=O)O, the Kd was 0.446 µM (Disks large homolog 4, PDZ3 domain (Homo sapiens, UniProt P78352); binding, SPR; pH 7.5, 25 °C).
